Results gathered from unrelated publications.
Parts stem from different laboratories: compare values within a part only.

Sample 1 — method: universal PBM; form: double-stranded DNA, one strand shown; matrix: in vitro; concentration: 600 nM; direction: higher = stronger binding
Target: Sal-like protein 4, full length isoform A (SALL4, Homo sapiens, UniProt Q9UJQ4, residues 1-1053)
Chain of UniProt Q9UJQ4 (whole entry, looked up): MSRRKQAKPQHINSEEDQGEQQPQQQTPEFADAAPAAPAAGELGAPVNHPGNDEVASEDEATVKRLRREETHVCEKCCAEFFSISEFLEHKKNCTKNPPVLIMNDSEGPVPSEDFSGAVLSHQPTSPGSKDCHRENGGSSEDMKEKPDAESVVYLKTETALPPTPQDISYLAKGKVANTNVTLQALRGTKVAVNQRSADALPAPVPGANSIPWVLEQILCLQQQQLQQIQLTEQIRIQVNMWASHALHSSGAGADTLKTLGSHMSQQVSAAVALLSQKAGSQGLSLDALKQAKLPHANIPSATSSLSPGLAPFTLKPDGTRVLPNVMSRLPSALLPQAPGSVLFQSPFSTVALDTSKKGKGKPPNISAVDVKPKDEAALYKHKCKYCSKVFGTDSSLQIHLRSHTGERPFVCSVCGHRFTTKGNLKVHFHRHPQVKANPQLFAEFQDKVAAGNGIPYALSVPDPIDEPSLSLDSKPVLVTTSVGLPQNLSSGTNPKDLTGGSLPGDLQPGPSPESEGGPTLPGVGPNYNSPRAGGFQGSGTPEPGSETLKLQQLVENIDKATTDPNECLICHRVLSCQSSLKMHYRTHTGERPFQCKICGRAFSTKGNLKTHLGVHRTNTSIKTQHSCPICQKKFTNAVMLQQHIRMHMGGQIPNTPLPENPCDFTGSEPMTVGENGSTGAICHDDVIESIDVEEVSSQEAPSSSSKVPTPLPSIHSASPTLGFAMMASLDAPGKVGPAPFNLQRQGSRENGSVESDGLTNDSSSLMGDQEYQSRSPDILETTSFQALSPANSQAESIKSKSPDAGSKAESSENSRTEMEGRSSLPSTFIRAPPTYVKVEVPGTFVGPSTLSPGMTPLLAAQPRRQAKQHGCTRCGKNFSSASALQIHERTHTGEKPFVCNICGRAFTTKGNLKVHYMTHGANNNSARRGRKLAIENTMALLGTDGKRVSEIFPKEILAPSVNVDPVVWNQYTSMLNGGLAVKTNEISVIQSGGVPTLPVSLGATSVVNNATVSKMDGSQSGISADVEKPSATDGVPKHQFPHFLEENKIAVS
Setting: 8-mer, flanks averaged, mean of replicates
The E-score of `GCGCTATA` is reported as 0.176.
With `AGAAACCG` the E-score was -0.259.
`AGTAGGCA` has an E-score of 0.0404.
The E-score of `ATGGAACG` is reported as -0.106.
The E-score of `ACGGACGA` is reported as -0.0329.
The E-score of `CGGCCATC` is reported as -0.29.
For `ATTGTTGC`, the E-score was 0.152.
The E-score of `GAAAGGCA` is reported as 0.171.
The E-score of `AACGATAT` is reported as 0.31.
`AATTCGCA` has an E-score of 0.0775.
With `CATAGATG` the E-score was 0.0879.
For `AAAATCCG`, the E-score was 0.0225.
With `CCAGCAGG` the E-score was -0.329.
`GCCGAGGA` gave an E-score of -0.161.
For `ACAGTCCT`, the E-score was -0.0461.
The E-score of `GTCCGAAC` is reported as -0.192.
For `CGGGAAAC`, the E-score was -0.153.

Sample 2 — method: protein binding microarray; form: double-stranded DNA, one strand shown; matrix: in vitro; concentration: not given; relative to: not given; direction: higher = stronger binding
Target: Histone acetyltransferase KAT6A, both winged helices, GST fusion (KAT6A, Homo sapiens, UniProt Q92794, residues 1-181)
Setting: 8-mer, flanks averaged, mean of 2 arrays, mostly near background
Target sequence (chain): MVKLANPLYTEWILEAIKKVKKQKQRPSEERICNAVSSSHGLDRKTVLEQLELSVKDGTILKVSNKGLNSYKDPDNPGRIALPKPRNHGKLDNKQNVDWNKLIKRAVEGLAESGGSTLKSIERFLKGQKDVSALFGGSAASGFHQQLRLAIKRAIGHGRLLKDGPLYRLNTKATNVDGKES
The E-score of `AGATGGGC` is reported as -0.062.
`CCGGTGCA` has an E-score of 0.161.
The E-score of `ATACTGCC` is reported as -0.0448.
`CAGTAGAG` gave an E-score of -0.246.
For `CGTAAACC`, the E-score was 0.172.
With `CAAGCTAC` the E-score was -0.0872.
With `AGAACGGG` the E-score was 0.138.
`CCGCACCA` gave an E-score of 0.0635.
`CACTTACC` has an E-score of 0.0166.
With `AATAGCCG` the E-score was 0.168.
For `ACTCCCGG`, the E-score was 0.145.
The E-score of `ACAAAGCT` is reported as -0.0109.
The E-score of `CGAACCTA` is reported as -0.0229.
`GGCTATCA` has an E-score of 0.0622.
`TGGCCTAA` has an E-score of -0.11.
For `AAATGTTC`, the E-score was -0.0925.
The E-score of `GAATAACA` is reported as -0.0473.
`ACCCCCTC` gave an E-score of -0.139.

Sample 3 — method: RNA Bind-n-Seq; form: RNA; matrix: in vitro; concentration: not given; setting: RNA with constant flanks, ends assumed; relative to: input RNA pool; direction: higher = stronger binding
Target: RING finger protein unkempt homolog, zinc fingers 1-6, GST-SBP tag (UNK, Homo sapiens, UniProt Q9C0B0, residues 30-357)
Chain of UniProt Q9C0B0 (30-357, looked up): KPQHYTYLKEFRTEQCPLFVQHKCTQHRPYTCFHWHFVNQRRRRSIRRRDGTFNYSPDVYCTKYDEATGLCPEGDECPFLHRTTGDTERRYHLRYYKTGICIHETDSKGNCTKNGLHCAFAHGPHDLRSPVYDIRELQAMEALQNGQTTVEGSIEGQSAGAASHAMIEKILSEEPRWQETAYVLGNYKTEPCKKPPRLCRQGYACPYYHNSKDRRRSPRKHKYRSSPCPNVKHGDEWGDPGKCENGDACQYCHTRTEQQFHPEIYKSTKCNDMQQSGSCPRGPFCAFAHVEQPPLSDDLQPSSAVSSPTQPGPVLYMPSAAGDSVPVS
`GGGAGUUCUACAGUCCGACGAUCUGCUUCAGAACCCUUGUCUGUUGUGGUAUUGUAGAUGGGUUUAAGUCAUGGCCUCUUUUGACCGAUUUUGUUGUGUCAUGUGAGCAAGUCAUUACACGAUCUACUGUUGGAAUGAACUGUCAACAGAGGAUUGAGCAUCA` gave a bound/input enrichment of 0.154 ratio.
The bound/input enrichment of `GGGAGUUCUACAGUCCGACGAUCGAAGCCAUGAGUUAUGCUGAGGUCAUGAGGCUGGUGAAAGGCAUGAACUUCUCAGUGGCCGUGUUCGACACAGCACCCACCGGCCAUACACUCAGGCUCCUGAACUUCCCGACCAUCGUGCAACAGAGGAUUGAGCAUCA` is reported as 0.116 ratio.
With `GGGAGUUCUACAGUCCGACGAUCAAUAUAUUACAGUUCAUUCCACAGAAAGCAUCCAAACCACCCAAAUGACCAAGGCAUAUACCGUAUUUGGAGGAAUCAGGGGUUUGGAAGGAGUAGGGAGGAGAAUGAAGGAAAAUGCAACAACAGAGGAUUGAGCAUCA` the bound/input enrichment was 0.248 ratio.
The bound/input enrichment of `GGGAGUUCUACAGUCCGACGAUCAAAGCUGCACUGAAAAGCUUGAUUCCUACAUUGGAAAAAACCAAAAGCACCAGCAAAGGAACCGAAAUUCUACUUGAAAAACUGAGCACAUAGGUGGAAAGAGUUAAGAGCAAGAUGGAACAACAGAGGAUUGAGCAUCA` is reported as 0.159 ratio.
The bound/input enrichment of `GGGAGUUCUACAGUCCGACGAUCGAAAAGAAGCAACAACUUCUUAGAGCAGCAACAGGAAAGGCCAUUUUAAAUGGAACCGACAGCAUAAACAAAGUGCUAGACCACUUCCGUCGAAAAGGAAUAAACCAGCAUGUUCAAAAUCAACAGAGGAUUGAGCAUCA` is reported as 0.0855 ratio.
`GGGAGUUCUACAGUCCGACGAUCAAAGAUCCUAACAUGAAAGGUGCAAUGCUUACAAACACUGGAAAAUAUGCAAUACCAACUACCGAUGCAGAGGCCUAUGCAAUCGGGAAGAAAGAGAAACCACCCUUCUUACCAGAGGAGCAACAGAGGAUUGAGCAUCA` gave a bound/input enrichment of 0.232 ratio.
For `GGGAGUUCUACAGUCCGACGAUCUAGACCAAAAAUUCUGAUGACCACAUCUAGAUUAUUUUUCUAUAAAAAAAUGAUUUUCACUACCGCGAUGUCAGUCACCACUAAGCUACUGUCCAAUUCCAUGUGAUGUGUAACUUUUACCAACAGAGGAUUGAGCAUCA`, the bound/input enrichment was 0.972 ratio.
The bound/input enrichment of `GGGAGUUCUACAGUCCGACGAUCGACUCCACAGAUUGUGAGUGUGUGAGUGUGUGUGUGAGUGAGAGAAAAAGAGAGAGAUGGUCCGUCUGUUUAACCUGUCUGUCUAUCUGUCAUUUCUUCCUCUGGACCUGGGGCAGCCAACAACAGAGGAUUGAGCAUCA` is reported as 0.354 ratio.
With `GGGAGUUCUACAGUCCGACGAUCGAACCCUAGCACAAAUUUGCUUUGGGAUUUUCUUUUCUGGAAAAAAAAAAUAAAAGAAACCGUACAUUGAAAACAAAUGAAUUCUCAACUCCUACGGUUCAUGUAGAGUUUAGAGAAAAUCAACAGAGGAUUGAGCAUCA` the bound/input enrichment was 1.77 ratio.
`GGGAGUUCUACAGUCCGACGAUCUUUUCAUGCCCGGCCUUUGUUCCUCCAUAAAUGUGUCCUUUAGUUUCAAACAGAUCUUUACCGUUCGUGCUUCAUAAGCCAAUUCUUAUUAUUAUUUUUGGGGGACUCUUCUUCAAAGAGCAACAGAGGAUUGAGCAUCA` has a bound/input enrichment of 3.07 ratio.
`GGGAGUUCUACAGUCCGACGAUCUUCUCAGCAUGGGGAAAUAACAGUUCUCAGGGACAGUCUACUCAGAGCUCUGGAUACCGCCGCAAUUAUGCUUAUGCACCUAGCUCCUUAGGUGGAGCCAUGAUUGAUGGACAGUCAGCUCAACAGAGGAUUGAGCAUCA` gave a bound/input enrichment of 0.11 ratio.

Sample 4 — method: RNA Bind-n-Seq; form: RNA; matrix: in vitro; concentration: 365 nM; relative to: no-protein control; direction: higher = stronger binding
Target: RNA binding protein fox-1 homolog 2, RRM domain, GST-SBP tag (RBFOX2, Homo sapiens, UniProt O43251-10, residues 100-194)
Setting: natural RNA segment, single round, ends assumed
Construct (chain): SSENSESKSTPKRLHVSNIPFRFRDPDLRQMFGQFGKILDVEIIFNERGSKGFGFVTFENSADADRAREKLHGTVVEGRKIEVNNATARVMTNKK
`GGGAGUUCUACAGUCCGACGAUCCAAGAGAGGUGCUAUCACAUAGAUCUAGUCUGAAGUCUGGAACACUUUCCUCUUCUAUGACCCCUCUCUCCCCAGUAUUAUCUUACUUGCAAAAUGGAGACCAAAUUCUAUGGAAUUCUCGGGUGCCAA`: “RBNS enrichment (R)” 0.262.
`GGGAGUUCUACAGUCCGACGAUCGUAAGUGAAAAAGCCGUGACCAACCGUAGUAAAGUAGAUGACAGCUGUUGUAUAUCAGACUUAAUUUUGUCAGCUGAUAGUAUAUAGUGACUGAUGAGUCAGUCACAGUUUGGAAUUCUCGGGUGCCAA`: “RBNS enrichment (R)” 0.4.
For `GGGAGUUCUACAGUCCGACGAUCUAAUGUGGAAGAGCCAUUUCAUAGGUCAUAGGUGGUAUGGUAUAUUUCUUCAGAGUCAACCUUGGCCCUGAGAAGUAUGUCCUCCUGGUGUGCUCAGGCUCAACGGCAGUUGGAAUUCUCGGGUGCCAA`, “RBNS enrichment (R)” read 0.327.
`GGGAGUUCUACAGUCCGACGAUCUUAAGUGAGAUGGAAAAGCUGAAUGCUGACACACCCCACCCAUAAGCAAAGUAUCAACGCUUUCUGAUUUCCAGUACUGGGUGUUGAACCCAGAGCCUUUUAUAUGCUGGUGGAAUUCUCGGGUGCCAA` — result for “RBNS enrichment (R)”: 0.289.
`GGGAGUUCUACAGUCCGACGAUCAAUCCUGAUUUCCAGCUCAUGGAGCCAGCGUUUGAACCUUGAACAAAUAAAUUUCAUUUAUGAUUUUCUCAUCAACAUUUUCUUUGCUCUGUUUGUAGCUGAAUGUUACAUGGAAUUCUCGGGUGCCAA` — result for “RBNS enrichment (R)”: 0.435.
For `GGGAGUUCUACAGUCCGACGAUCGGAGAGUAGGUUUCAGGAAACCGGUAGACUGUCAGCAGCUGCCUCAGAAACUGUUCACAAAAGUCAACUAGCUGGCUCAGUUUUGCUGGCUUUGUGUAGAUUUGUGUAGAUGGAAUUCUCGGGUGCCAA`, “RBNS enrichment (R)” read 0.235.
`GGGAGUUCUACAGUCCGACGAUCCAGAGCCCAUCUGCCUUACAGCCAGCCGGACAGACGUCCUACUACAUGCCACCCCCUCAGAGGACGUCAGUUCAGGGCACGUCUCAAUAUGAGUCAAGUGCCAGCUGGACUGGAAUUCUCGGGUGCCAA`: “RBNS enrichment (R)” 0.194.
For `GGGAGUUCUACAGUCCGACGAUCUAAGACAGGGCUGGCAGGAGCAGACUGCCUCAGCCCAUGUGCCCUGCCGGCCAGGGCGUGGGCUCCCCUCGGCUGUGGUGCCUCCUCUGGCCCCCCAGGUCCACGUCCUUUGGAAUUCUCGGGUGCCAA`, “RBNS enrichment (R)” read 0.262.
Under “RBNS enrichment (R)”, `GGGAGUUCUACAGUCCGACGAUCUGCUGUCACUUCGUUGGUCCCUUGAAGAUCUCUGUGACCGGAUCUGCCUCCGUGGCUGGGAGACAUUCAUAACACAGAGGACUCAGUUCUGUUGGAAAGCCAGCAUGUGAUGGAAUUCUCGGGUGCCAA` is recorded as 3.83.
